Experimental data collected from several papers.
Each line is one published result; not all experiments were run side by side.

Compound	assay	system	conditions	endpoint	result
CCO[C@H]1CCN(Cc2c(OC)cc(C)c3[nH]ccc23)[C@H](c2ccc(C(=O)O)cc2)C1		PNH patients, active haemolysis	oral, 50 mg, treatment	incidence reverse T3 increase	0%
C[C@@H](c1ccc2nccn2c1)n1nnc2ncc(-c3cnn(C)c3)nc21	item: peripheral oedema	EGFR-mutant MET-altered NSCLC patients	oral, dose not given, AE grade ≥3, all	incidence of treatment-related AEs	1%
NC1(C(=O)N[C@@H](CCO)c2ccc(Cl)cc2)CCN(c2nc[nH]c3nccc2-3)CC1		metastatic CRPC patients	dose not given, grade 3 to 4, treatment-related, all doses, together with: enzalutamide 160 mg daily	incidence of Neutropenia	6.7%
C=CC(=O)Nc1cc(Nc2nccc(-c3cn(C)c4ccccc34)n2)c(OC)cc1N(C)CCN(C)C	item: neutrophil count decreased	EGFR-mutant MET-altered NSCLC patients	oral, dose not given, AE grade ≥3, all	incidence of treatment-related AEs	7%
N#CCNC(=O)c1ccc(-c2ccnc(Nc3ccc(N4CCOCC4)cc3)n2)cc1		patients with myelofibrosis	oral, 200 mg, 24 weeks, phase III trials	incidence of diarrhoea	22.8%
C[C@@H](N)C1CCN(S(=O)(=O)c2cccc3cnccc23)CC1		healthy volunteers	oral, 150 mg, single ascending dose, fasted	incidence of syncope	0%
COc1ccc([C@@H](O)c2cc(-c3ncnc4cc(N5CCOCC5)ccc34)c(F)cc2Cl)nn1		locally advanced rectal cancer	oral, 50 mg, together with: capecitabine and radiotherapy	incidence of proctitis TEAE	100%
O=C(Nc1nc2cccc(-c3ccc(CN4CCS(=O)(=O)CC4)cc3)n2n1)C1CC1		rheumatoid arthritis patients	oral, 30 mg once daily, 4 weeks, TEAE regardless of relatedness	incidence of dizziness	5.9%
NCCONC(=O)[C@@H]1CC[C@@H]2CN1C(=O)N2OS(=O)(=O)O		healthy Chinese male subjects	intravenous, 2 g	incidence of any adverse event	62.5%
Cc1cc(-c2nnc(N)nc2-c2ccc(F)cc2)cc(Cl)n1	item: diarrhea, any grade	post-IO NSCLC patients	oral, 100 mg	incidence of treatment-related AE	5.9%

For quick reference, copied from above:
Compound	assay	system	conditions	endpoint	result
CCO[C@H]1CCN(Cc2c(OC)cc(C)c3[nH]ccc23)[C@H](c2ccc(C(=O)O)cc2)C1		PNH patients, active haemolysis	oral, 50 mg, treatment	incidence reverse T3 increase	0%
